Assay results of several laboratories.
Lines come from different studies, so protocols differ. ± marks the error that the study gave.

CCCCCc1ccc(C(=O)Oc2ccc(C#N)c(F)c2)cc1  concentration (measured: compound; human pregnant women, male fetuses, maternal serum; dose not given, paired maternal-cord samples, mean): 0.11 ng/mL
Cn1cc(-c2ccc(-c3cncc(Cl)c3N3CCC4(CCNC4=O)CC3)cc2)cn1  log2 fold change (COLO 205; gene expression, microarray, measured: GADD45B mRNA; concentration not given, 2 h; baseline: untreated cells): 2.03
Cc1cnc(N2CC3(CCOCC3)C2)c(C(=O)Nc2ccc(C(=O)N3CCc4cc(C(=O)Nc5c(C)cccc5F)sc4-c4ccccc43)cc2)c1  concentration (human, nasal epithelial lining fluid; inhaled, 5 mg twice daily, 6 h): 23600 ng/mL
CCCC1CCC(c2ccc(-c3ccc(F)c(F)c3)cc2)CC1 (centres unmarked)  concentration (measured: compound; human pregnant women, female fetuses, maternal serum; dose not given, paired maternal-cord samples, mean): 0.24 ng/mL
COc1ccc2c(=O)n(C)c(-c3ccccc3)nc2c1  concentration (Sprague-Dawley rat, male, large intestine; oral, 30 mg/kg, 4 h): 3870 ng/mL
O=C(N[C@H](Cc1c[nH]c2ccccc12)C(=O)Nc1ccncc1)c1ccc(-c2cc(C(F)(F)F)ccc2F)cc1F  concentration (Swiss Webster mouse, female, lung; oral, 50 mg/kg, 8 h, 20% Kolliphor vehicle): 38300 nM
CC=CC1CCC(C2CCC(CCC)CC2)CC1 (centres unmarked)  concentration (measured: compound; human pregnant women, female fetuses, maternal serum; dose not given, paired maternal-cord samples, mean): 1.08 ng/mL
O=C(N[C@H](Cc1c[nH]c2ccccc12)C(=O)Nc1ccncc1)c1ccc(N2CCN(c3ccc(F)cc3F)CC2)cc1F  concentration (Swiss Webster mouse, female, plasma; oral, 50 mg/kg, 8 h, 20% HPβCD vehicle): 1670 nM
CCc1ccc(-c2ccc(-c3cc(F)c(F)c(F)c3)c(F)c2)cc1  concentration (measured: compound; human pregnant women, male fetuses, cord serum; dose not given, paired maternal-cord samples, mean): 0.97 ng/mL
CCc1c(-c2ccccc2)c(-c2ccccc2)nn1-c1ccccc1-c1cccc(OCC(=O)O)c1  concentration (female Sprague-Dawley rat, ovary homogenate; oral, 10 mg/kg, 4 h): 299 ng/mL
O=C(N[C@H](Cc1c[nH]c2ccccc12)C(=O)Nc1ccncc1)c1ccc(-c2ccc(F)c(C(F)(F)F)c2)cc1F  concentration (Swiss Webster mouse, female, brain; oral, 50 mg/kg, 2 h, 20% HPβCD vehicle): 100 nM
CC(C)C[C@H](NC(=O)C[C@H](O)[C@H](CC(C)C)NC(=O)[C@H](Cc1c[nH]cn1)NC(=O)CNC(=O)[C@@H](NC(=O)[C@H](C)NC(=O)[C@H](Cc1c[nH]c2ccccc12)NC(=O)[C@H](CCC(N)=O)NC(=O)[C@@H](Cc1ccccc1)NC(=O)COCCOCCNC(=O)CCC(C(=O)O)N1CCN(CC(=O)O)CCN(CC(=O)O)CCN(CC(=O)O)CC1)C(C)C)C(N)=O (some centres unmarked) [lutetium-177 labelled]  tissue uptake (BALB/c nu/nu mice, spleen; intravenous, 500 pmol, 1 h, added: PA 300 µg): 0.19 ± 0.03 %ID/g
O=C(N[C@H](Cc1c[nH]c2ccccc12)C(=O)Nc1ccncc1)c1ccc(-c2ccc(F)c(Cl)c2)cc1F  concentration (Swiss Webster mouse, female, brain; oral, 50 mg/kg, 8 h, 20% HPβCD vehicle): 1410 nM
CN(C(=O)n1cnc(-c2cccnc2)c1)C1CCCCC1  concentration (Wistar rat, cerebral cortex; oral, 10 mg/kg/day of BIA 10-2474, 48 h, repeated 5 days): 8.8 ± 0.3 ng/g

A few entries again:
CCc1ccc(-c2ccc(-c3cc(F)c(F)c(F)c3)c(F)c2)cc1  concentration (measured: compound; human pregnant women, male fetuses, cord serum; dose not given, paired maternal-cord samples, mean): 0.97 ng/mL
CCc1c(-c2ccccc2)c(-c2ccccc2)nn1-c1ccccc1-c1cccc(OCC(=O)O)c1  concentration (female Sprague-Dawley rat, ovary homogenate; oral, 10 mg/kg, 4 h): 299 ng/mL
